Published values of several laboratories.
Every numbered part comes from another study and shows a few of its results, in no order.

Series 1
Target: Prothrombin, mature alpha-thrombin (F2, Homo sapiens, UniProt P00734)
Technique: aptamer microarray, sandwich
Molecule type: DNA with 2'F-ANA
Sample: in vitro
Concentration: 200 nM
Notes: whole 15-mer aptamer, many near background
Added: Cy3 exosite-II aptamer, 400 nM
Direction: higher = stronger binding
Strand: GGTTGGTGTGGTTGG
| Modification | mean fluorescence intensity [a.u.] |
| --- | --- |
| 2'F-ANA at 1 2 3 4 5 6 9 10 11 13 15 | 51.1 |
| 2'F-ANA at 3 4 5 9 12 | 234 |
| 2'F-ANA at 5 6 8 10 11 12 14 | 48.6 |
| 2'F-ANA at 1 4 6 9 12 15 | 235 |
| 2'F-ANA at 2 4 5 8 9 10 11 12 13 15 | 46.7 |
| 2'F-ANA at 2 7 13 14 15 | 168 |
| 2'F-ANA at 1 3 7 9 10 11 12 13 14 15 | 61 |
| 2'F-ANA at 1 3 4 5 6 7 8 9 10 11 | 50.3 |
| 2'F-ANA at 5 6 7 10 11 15 | 47 |
| 2'F-ANA at 1 2 3 4 9 11 13 14 15 | 55.3 |
| 2'F-ANA at 1 6 8 10 14 | 47.5 |
| 2'F-ANA at 2 4 5 7 9 10 14 15 | 46.8 |
| 2'F-ANA at 1 2 3 4 7 8 9 10 11 14 15 | 50.2 |
| 2'F-ANA at 3 4 5 9 10 11 12 13 14 | 56.4 |
| 2'F-ANA at 4 6 8 9 12 13 15 | 305 |
| 2'F-ANA at 2 3 5 6 7 8 14 | 51.8 |
| 2'F-ANA at 4 7 9 12 | 560 |
| 2'F-ANA at 2 3 6 7 8 11 14 | 420 |
| 2'F-ANA at 5 6 9 10 12 13 15 | 50.5 |
| 2'F-ANA at 2 10 11 14 | 78.6 |
| 2'F-ANA at 4 5 7 8 9 10 13 15 | 47.3 |
| 2'F-ANA at 1 4 5 9 10 12 | 73.9 |

Series 2
Target: Interferon regulatory factor 5, full length, phosphomimetic (IRF5, Homo sapiens, UniProt Q13568-2, residues 1-514, K96S/S451D/S453D/S456D/S462D)
Technique: protein-binding microarray
Molecule type: double-stranded DNA, one strand shown
Sample: in vitro
Concentration: 250 nM
Notes: 60-bp whole probe
Added: salmon DNA 0.4 mg/ml
Baseline: random background probes
Direction: higher = stronger binding
All sequences stand within: GCCTAGCAC … GTCTTGATTCGCTTGACGCTGCTG
| Strand | log fluorescence [z-score] |
| --- | --- |
| TCATTTTTATCAATCATACTGTGCTAG | 1.47 |
| TCAGAAATCTCAATGGGACTGTGCTAG | 0.015 |
| GACGGACTGCTACTGCTGTCGTGCTAG | -0.452 |
| TTACGACTGGGACTGGGTTAGTGCTAG | 0.157 |
| TTAGGTATCGACACTGGGTAAGTGCTA | 2.55 |
| GACGGTATCAGGTTTCGGGACGTGCTA | 3.39 |
| TTAGAATTGGGGTATCGATTAGTGCTA | 2.65 |
| GACGGTATCGGGTTTGGGGACGTGCTA | 1.92 |
| TCACATTTTTTTTGCAAACTGTGCTAG | 0.972 |
| GCCGGTTTCGGGACTGGGGACGTGCTA | 5.42 |
| CTGTGGGAGGCCCGCGGGAGGTGCTAG | -0.969 |
| GAAGATCTCAGACTGGAGACGTGCTAG | -0.337 |
| CAATATTTGCAACATCCCAATGTGCTA | 0.632 |
| TTTTTTTTTTTTTTACTTCGGTGCTAG | 1.47 |
| TTAGATTCCAGGTTCGATTAGTGCTAG | 0.658 |
| CACGGTATCGGTATCGGGACGTGCTAG | 6.09 |
| TCACGGATGATCTCTCTGACTGTGCTA | -0.128 |
| TCATGTTTCCTCTTTCTACTGTGCTAG | 1.86 |
| GAACATACTAATTTCCATTTGTGCTAG | 1.01 |
| TTCGGTTTCCTACTGCTTTAGTGCTAG | 1.71 |
| TTAGGTTTCGACCCTGGGTTAGTGCTA | 4.92 |
| TTAGGTATCGGTTTCTGTTAGTGCTAG | 9.05 |

Series 3
Target: RING finger protein unkempt homolog, zinc fingers 1-6, GST-SBP tag (UNK, Homo sapiens, UniProt Q9C0B0, residues 30-357)
UniProt Q9C0B0, sequence (30-357, looked up): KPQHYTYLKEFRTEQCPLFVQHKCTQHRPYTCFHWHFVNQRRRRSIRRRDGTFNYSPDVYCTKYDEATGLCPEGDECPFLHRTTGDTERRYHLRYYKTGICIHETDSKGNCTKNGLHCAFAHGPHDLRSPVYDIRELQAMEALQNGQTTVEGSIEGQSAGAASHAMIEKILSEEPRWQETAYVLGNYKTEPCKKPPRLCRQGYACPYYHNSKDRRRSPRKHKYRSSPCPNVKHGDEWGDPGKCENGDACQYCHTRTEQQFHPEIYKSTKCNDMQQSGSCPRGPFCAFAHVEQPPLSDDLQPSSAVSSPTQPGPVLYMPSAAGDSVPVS
Technique: RNA Bind-n-Seq
Molecule type: RNA
Sample: in vitro
Concentration: not given
Notes: RNA with constant flanks, ends assumed
Baseline: input RNA pool
Direction: higher = stronger binding
All sequences stand within: GGGAGUUCUACAGUCCGACGAUC … CAACAGAGGAUUGAGCAUCA
| Strand | bound/input enrichment |
| --- | --- |
| GAUAAGAAAAGCUUGUUGGAGACCCGCUUGCAUGUCACUGGUAGAGACCUGAGGUGUCAAACCGCUGAAACUUUCGGAUUUCAAGAAAAUUACAUCAAGAUCGUAAUAAAUAAGAAACAG | 0.218 ratio |
| UGUGAAAUCAGUAGGUUAUCUUUAAUCUUUACACUACAUGCAGAUCCAUAGUAUCCUUUGCCGUGUUGUAAAUACUUUUGCUUUGAAAACUUUUUCAUUGUCCUAAAUCACCCUGACUCU | 0.471 ratio |
| UGAAGAUGAUGUAAAUAAGCAAAGUUCAGUUAGAAAGAACUCACAAAAACAAAUAAAAAACCGCAGUCUCCUUUCUUUUGACAGUGAAGAUGAAAAUGAGUAAAUAUGAAUAUUGUGGAC | 0.367 ratio |
| UGGGCACUGUAUCAGAUAGAUUACUUUUUAAAUGUAGAUAAAAUUUCAAAAAUGAAUGGCCCGUUUACGUGAUAGAUUAGGCUCUUACUACAUAUGUGUGUGUAUAUAUAUGUAUUUGAU | 10.9 ratio |
| UCUCUGGAAGCUAUGGGCAGAGCUCAGUUCAUAGUUGUUGGGAAAUAAGUGCUUCAUUUUCCGUUGUUCUGAGUUGAUCCGCACCACUGCACCACAACUCAAUAUGAAAAACUAUUUAAC | 0.164 ratio |
| GACACUCUCAUCAAGACAUUUGUGCGCUCACAGACUGCCCAGGUACAUGAUGGGAAAGGUAUCCGGUUUACUGCUAACGAGGACAUUCGGCCAGAAAAGGGGGCUGGUGUGGAUGACCCC | 0.219 ratio |
| UUGGAAGGACCAGAGCCCAGUCAGCUCAAACCACUAGUUAUACAGGCUAUGCCCACCCUAACCGAAUUAAUGAAAGACCCCAGUGUAGUUGUUCGAGAUACAGCUGCAUGGACUGUAGGC | 0.505 ratio |
| AAAAUCCUCCCUCAAAGGAUUCGGGAGCUGGUACCCGAGUCCCAGGCUUACAUGGACCUCCCCGCAUUUGAGAGGAAACUGGAUCAAACCAUCAUGCGGAAGCGGGUGGACAUCCAGGAG | 0.165 ratio |
| AUUUGCAGAAACAGCGAGAACUUCAAAAGGCCAAUCAGUAAGUUUGAUUUGAAAAAUGAAUUCCGAGAUUUUUGGACAUGGAAUGAACAAAAUGGGGUCAUAUUGGUACCUCCCUCUCUA | 0.26 ratio |
| CCUCUGUUUAGAAGUGUAGGCAAUACUAUUGAUCCUGUCAUUCUUUUCCAAAAAAUGGGAGCCGGUAAACUUGAGAUGUAUGUGCUUAAUCCAGUCAAGAGCAGCAAGGAAAUGCAGUAU | 0.542 ratio |
| CUGCUAGUGCAUGGGGCUUUAGCCUUUCCUCUAGGGUUAGAUUCCUACCAUGGCUGUGUUACCGCGGCUGCCCGCUAUGGCCGGGGCCGGGUGGUUGUGACUGGCCAUAAGGUAUUAUUC | 0.28 ratio |

Series 4
Target: RNA binding protein fox-1 homolog 2, RRM domain, GST-SBP tag (RBFOX2, Homo sapiens, UniProt O43251-10, residues 100-194)
Technique: RNA Bind-n-Seq
Molecule type: RNA
Sample: in vitro
Concentration: 365 nM
Notes: natural RNA segment, single round, ends assumed
Baseline: no-protein control
Direction: higher = stronger binding
All sequences stand within: GGGAGUUCUACAGUCCGACGAUC … UGGAAUUCUCGGGUGCCAA
Residues (chain): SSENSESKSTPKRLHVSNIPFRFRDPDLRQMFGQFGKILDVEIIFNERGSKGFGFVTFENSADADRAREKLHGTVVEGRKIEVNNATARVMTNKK
| Strand | RBNS enrichment (R) |
| --- | --- |
| UCAAAGGGAGAGAAAAGCUGGGCUUUUCCCUUGCUGUACCUCAUUCAGCUUUUGAUUUCCAUGGCCCCACCAUUUAUGUGCAAGAUUUGCAAUGGUUGUCAGCUUCCUCU | 0.431 |
| AGGAAGCAGUUUUAGUAUCAGAAAAGAUUUAUUAGAAAAUUCUCACGCUGAACUGGUGUAGCAUGUGGUGCAGCAUUCAGUGAAACUGGCUGGAGGAAAUAGGCUUGUUU | 9.45 |
| CAAGAGAAGUUAGAGGAGAAUUAAUAUAUUUCGUGCAAAAGUACUACAAACUUAAGUGUAUGUGCUAAAACUAAAUGUAUGUAACAUUUUUUUUUUAGCAGCGCCUUUGC | 0.576 |
| ACUAUAGGUUAUUCUCUUUCCUUUUCUAUGUUGUGUUUAUUCUAUUUAUUCUCUACAAUAUAUAAAAUGUAUUUGUUCUCUACAAUAAAUGUGUUUAUUCUCUACAAUAU | 0.494 |
| UUGGAUUGCGUUUUGCUUUUUAUUUCUUUAUAAAAAUAUGUCAAAAACAGUUUUUAAUUUUAGAAAUCUUAUACUUGAAAGAAACCUCAAUUAUCAGUGGCUUUAUGAAG | 0.528 |
| UAUCUAAACUGCACUGAUGAACUAGAUUAAAGCCUUGGGAGAUUUAUACUAUAAAUUCAGUGAUGGCAAGAACCAACACUGUUUUUUUGUGAGAAUUGUCAGUGUAACUA | 0.442 |
| GUUGUGAGAUUGGGACACAUAUCUUGCCCAAUCAGAAGCUGUUUCUUAUCUUGAGAGUUAGGAGCACCAUAGGAUAUGAUGGUCUAUGUGCUGCCAACAGGCUCCCCGAA | 0.513 |
| CCAAUUACAUAGUCAGCUACAUAAUUGGCUUGCUUAUACAAAGAUAAGCAAGAGUCUUUCAUUGUCAGAAUAAGUAUUUUUCACGAUCUGUUUGAAGAGCAUCAUUGCUA | 0.329 |
| AAGAUUCCCAGGCCACAGUAUAGCCUUUGCUGUGCCCUGUGGCCUGGCCACAGUGAGGCAUGUAUCUGUAGUUCCUUGCUGAAUAACAAGAAGAUAUAUGUUUGUAUAUC | 0.529 |
| UUUUUAAUUUAAAGAUAAAAGCCUGUGUUUUACACAUUCUUUUUUGGUGUUCAUAGCUUCUUCUCAUACAGGUGCCAGACACUGUUUGUGCUUUUGAUGGAUUUUUAUUU | 0.465 |
| UGAUGUUGACUAAGGGUUAUAGACAGACGCUCUUGACAGAGGUCACAGAUCGGAAUAUGAAGUUCUUUAUGGUUCCAUAGCCUAGGUGUUUCUUGGGGGCAUUUGGGAGG | 2.64 |
| CACUAAUGAAAGUUGAAAAUAUGUCUUCAAAUCAGGAUGGCAAUGAUUCAGAUGAAUUCAUGUAAAAGGAGAAAAGGAGAAAAGGACCUUUGAAAGAUGUGAAUGUAGAG | 1.33 |

Repeated from above (series 1):
| Modification | mean fluorescence intensity [a.u.] |
| --- | --- |
| 2'F-ANA at 2 3 5 6 7 8 14 | 51.8 |
| 2'F-ANA at 4 7 9 12 | 560 |
| 2'F-ANA at 2 3 6 7 8 11 14 | 420 |
| 2'F-ANA at 5 6 9 10 12 13 15 | 50.5 |
